Assay results gathered from unrelated publications.
Lines come from different studies, so protocols differ.
Sample: plasma

| SMILES | host | route | dose | setting | AUC [ng·h/mL] |
| --- | --- | --- | --- | --- | --- |
| CN(C)CCNC(=O)/C=C/[C@H](Cc1ccccc1)Nc1ccnc2cc(Cl)ccc12 | CD-1 mouse | oral | 5 mg/kg | single dose | 30.1 |
| COC1C=COC2(C)Oc3c(C)c(O)c4c(c3C2=O)C2=NC3(CCN(CC(C)C)CC3)NC2=C(NC(=O)C(C)=CC=CC(C)C(O)C(C)C(O)C(C)C(OC(=O)c2cncnc2)C1C)C4=O (stereo not drawn) | female CD-1 mouse | oral | 10 mg/kg | – | 33900 |
| Nc1ccn(C[C@@H](CO)OCP(=O)(O)OCCCS(=O)(=O)CCCCCCCCCCCCC2CCC2)c(=O)n1 | mouse | intravenous | 3 mg/kg | single dose | 523 |
| N#Cc1nc(N2CCOCC2)nc(N(Cc2ccc(F)cc2)CC2CCCNC2)n1 (stereo not drawn) | mouse | intraperitoneal | 10 mg/kg | single dose | 1010 |
| CCc1nc(N)nc(N)c1C#C[C@H](C)c1cc(-c2cc(C)nc(C)c2)ccc1Cl | mouse | intraperitoneal | 5 mg/kg | – | 14000 |
| COc1ccccc1NC(=O)OC1C(C)C(OC)C=COC2(C)Oc3c(C)c(O)c4c(c3C2=O)C2=NC3(CCN(CC(C)C)CC3)NC2=C(NC(=O)C(C)=CC=CC(C)C(O)C(C)C(O)C1C)C4=O (stereo not drawn) | female CD-1 mouse | oral | 10 mg/kg | – | 11300 |
| O=C(c1ccccc1)N1C(c2ccc(OCC3CCN(CCCF)C3)cc2)c2ccc(O)cc2CC12CC2 (stereo not drawn) | C57BL/6 mouse | intraperitoneal | 25 mg/kg | – | 8350 |
| CCc1nc(N)nc(N)c1C#C[C@H](C)c1cc(-c2ccncc2)ccc1OC | mouse | oral | 16 mg/kg | single dose | 410 |
| NC(=O)c1c(F)ccc(OCc2nc3cc(Cl)cnc3s2)c1F | mouse | oral | 3 mg/kg | – | 1390 |
| CC(C)(C)OC(=O)N[C@H](Cc1ccccc1)[C@@H](O)CN1CCC(N2CCCCC2)CC1 | Swiss mouse | subcutaneous | 20 mg/kg | single dose | 500 |
| CC(C)CCN(Cc1ccc(F)cc1)c1nc(C#N)nc(N2CCOCC2)n1 | mouse | intraperitoneal | 10 mg/kg | single dose | 195 |
| COC1C=COC2(C)Oc3c(C)c(O)c4c(c3C2=O)C2=NC3(CCN(CC(C)C)CC3)NC2=C(NC(=O)C(C)=CC=CC(C)C(O)C(C)C(O)C(C)C(OC(=O)Nc2cccnn2)C1C)C4=O (stereo not drawn) | female CD-1 mouse | oral | 10 mg/kg | – | 40300 |
| Nc1ccn(C[C@@H](CO)OCP(=O)(O)OCCCS(=O)(=O)CCCCCCCCCCCCCC2CCC2)c(=O)n1 | mouse | intravenous | 3 mg/kg | single dose | 807 |
| Cc1cc(O)cc(O)c1C(=O)c1c2c3c(c(O)cc(C)c3oc1=O)C(=O)c1c(O)cc(O)cc1-2 | male Kunming mouse | intraperitoneal | 30 mg/kg | – | 41600 |
| CCS(=O)(=O)c1ccccc1C(=O)N1CCN(c2nc3ccc(F)cc3s2)C[C@@H]1C | mouse | intravenous | 3 mg/kg | – | 1370 |

Excerpt of the above:
| SMILES | host | route | dose | setting | AUC [ng·h/mL] |
| --- | --- | --- | --- | --- | --- |
| CCS(=O)(=O)c1ccccc1C(=O)N1CCN(c2nc3ccc(F)cc3s2)C[C@@H]1C | mouse | intravenous | 3 mg/kg | – | 1370 |
| Nc1ccn(C[C@@H](CO)OCP(=O)(O)OCCCS(=O)(=O)CCCCCCCCCCCCC2CCC2)c(=O)n1 | mouse | intravenous | 3 mg/kg | single dose | 523 |
